Measurements from different studies.
Each line is one published result; not all experiments were run side by side. ± marks the error that the study gave.
U2AF2: U2AF2 148-342 (Homo sapiens, UniProt P26368)
UniProt P26368, sequence (whole entry, looked up): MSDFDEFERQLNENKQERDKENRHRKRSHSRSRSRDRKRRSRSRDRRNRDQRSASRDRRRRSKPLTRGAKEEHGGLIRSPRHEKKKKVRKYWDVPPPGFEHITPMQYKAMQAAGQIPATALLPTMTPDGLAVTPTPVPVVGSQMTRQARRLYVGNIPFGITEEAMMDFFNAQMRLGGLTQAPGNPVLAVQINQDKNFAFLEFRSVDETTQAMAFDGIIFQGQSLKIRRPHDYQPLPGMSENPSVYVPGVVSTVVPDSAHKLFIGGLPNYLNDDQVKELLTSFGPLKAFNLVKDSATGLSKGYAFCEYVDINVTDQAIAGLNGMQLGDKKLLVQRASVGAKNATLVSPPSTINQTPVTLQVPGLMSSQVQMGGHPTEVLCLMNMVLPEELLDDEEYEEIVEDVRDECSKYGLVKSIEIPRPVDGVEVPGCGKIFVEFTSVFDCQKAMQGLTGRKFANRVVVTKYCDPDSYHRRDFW
B1: SCO6712 (Streptomyces coelicolor, UniProt Q9XAL8); chain AKGITARTAPAGGEVRHLKMYAEKLADGQMGYGFEKGKASVPGPLIEVNEGDTLHIEFTNTMDVRASLHVHGLDYEISSDGTAMNKSDVEPGGTRTYTWRTHKPGRRDDGTWRPGSAGYWHYHDHVVGTEHGTGGIRNGLYGPVIVRRKGDVLPDATHTIVFNDMTINNRKPHTGPDFEATVGDRVEIVMITHGEYYHTFHMHGHRWADNRTGILTGPDDPSRVIDNKITGPADSFGFQIIAGEGVGAGAWMYHCHVQSHSDMGMVGLFLVKKPDGTIPGYEPHEHGGATAKSGESGEPTGGAAAHEHEH
B2: aspC A106G/A218G/F210I/I29V/I33V/I68L/I71L/N30D/N64T/S135A/T100S/V136I/V375I (Escherichia coli, UniProt P00509); chain MFENITAAPADPILGLADLFRADERPGKVDLGVGVYKDETGKTPVLTSVKKAEQYLLENETTKTYLGLDGLPEFGRCTQELLFGKGSALINDKRARTAQSPGGTGGLRVAADFLAKNTSVKRVWVSNPSWPNHKAIFNSAGLEVREYAYYDAENHTLDFDALINSLNEAQAGDVVLFHGCCHNPTGIDPTLEQWQTLAQLSVEKGWLPLIDFAYQGFGRGLEEDAEGLRAFAAMHKELIVASSYSKNFGLYNERVGACTLVAADSETVDRAFSQMKAAIRANYSNPPAHGASVVATILSNDALRAIWEQELTDMRQRIQRMRQLFVNTLQEKGANRDFSFIIKQNGMFSFSGLTKEQVLRLREEFGVYAVASGRINVAGMTPDNMAPLCEAIVAVL
B3: enzyme S252E (Schizosaccharomyces pombe, UniProt P78804); chain MSTPYEPEFQQAYKEIVGSIESSKLFEVHPELKRVLPIISIPERVLEFRVTWEDDKGNCRVNTGYRVQFNSALGPYKGGLRFHPSVNLSILKFLGFEQIFKNALTGLPMGGGKGGSDFDPKGKSDNEIRRFSQAFMRQLFRYIGPQTDVPAGDIGVTGFVVMHMFGEYKRLRNEYSGVVTGKHMLTGGSNIRPEATGYGVVYYVKHMIEHRTKGAETLKGKRVAISGSGNVAQYAALKCIQEGAIVKSISDEKGVLIAKTAEGLVPEEIHEIMALKEKRASIADSASLCKKHHYIAGARPWTNVGEIDIALPCATQNEVSGEEAAALIKQGCRYVAEGSNMGSSAEAVEVFEKSRASGEGCWLAPGKAANAGGVAVSGLEMAQNAQFSTWTHAEVDAKLAGIMQNIFEQSTDVASKYCDSGSNNIPSLVDGANIAGFLKVATAMQAVGDWW
B4: enzyme S446A (Methanosarcina mazei, UniProt Q8PVB1); chain MSEQRSVPLREHLLALKPCRHGGLIQETSETYGIPENEILDFSANFNPLGSPFDYPENGLNFEDIIKKSCGKLLEYPDNRYVEFREAAARFVGLGVTPQSIVPGNGSTEIVRLVVESVIEKGDKVLLPWPTFGEYEMQCRITGAEPVCPSQEEVNTLPDEVLEEAKILFICNPNNPTGKLRTREELKVLAERCREHKTLLYVDEAFIELSDPSQSVADLPAENNYVFVMRSLTKDFAIPGIRMGFGIAPPAMADILNTARLSWNLGAIANNTGIALLNIEGGIDSPYLKKAREMILKEGETLKAKIDRIRGFEAGEVNVNFILVDVSKFMLNSSELTARLAARGVLVRDCVSFHGLGKNYIRVAVRTEKENDRLIAAIGDVITEWGREQAKNELQHVIEKASEEGIGGRKTCEYYPCHFEGQNCTFCFCPFYPCENEKTGGKWIQASRGGRVWSCVDCHLVHKKEIAQKILDCLMHEGDTDELVKVAWKEVMEPIL
B5: human FUS; sequence looked up; chain MASNDYTQQATQSYGAYPTQPGQGYSQQSSQPYGQQSYSGYSQSTDTSGYGQSSYSSYGQSQNTGYGTQSTPQGYGSTGGYGSSQSSQSSYGQQSSYPGYGQQPAPSSTSGSYGSSSQSSSYGQPQSGSYSQQPSYGGQQQSYGQQQSYNPPQGYGQQNQYNSSSGGGGGGGGGGNYGQDQSSMSSGGGSGGGYGNQDQSGGGGSGGYGQQDRGGRGRGGSGGGGGGGGGGYNRSSGGYEPRGRGGGRGGRGGMGGSDRGGFNKFGGPRDQGSRHDSEQDNSDNNTIFVQGLGENVTIESVADYFKQIGIIKTNKKTGQPMINLYTDRETGKLKGEATVSFDDPPSAKAAIDWFDGKEFSGNPIKVSFATRRADFNRGGGNGRGGRGRGGPMGRGGYGGGGSGGGGRGGFPSGGGGGGGQQRAGDWKCPNPTCENMNFSWRNECNQCKAPKPDGPGGGPGGSHMGGNYGDDRRGGRGGYDRGGYRGRGGDRGGFRGGRGGGDRGGFGPGKMDSRGEHRQDRRERPY
B6: enzyme (Nitrosopumilus maritimus, UniProt A9A5X4); chain MDSQKFDSIIFDCDGVLVDITQSYDKTIDKTCRYVLKEFAKIDSITIDHKIIDGFKSSGGFNDEVDLVYAAILSLYTANKLNKKPSEFIYDVISNTDKTGIRSVQSYLESIYDVSEFLSKLGSLGDRHNNPVYSIFDQFFFGPELYGKLFDKQSKFSEEGMISNDKVILSVSLLETLQKEFGKKIAVVTGRGIESIRYSLKDMMDYFDTKNSAFLEDEPRELAKPNPATLIRAIQSMESKNCLYVGDSMEDYMMAKDAAQAGHSTTFCAIVGTSTNPEDRRKLFADSGVEMILESINDIPKVLNLV
UniProt B7I618, sequence (whole entry, looked up): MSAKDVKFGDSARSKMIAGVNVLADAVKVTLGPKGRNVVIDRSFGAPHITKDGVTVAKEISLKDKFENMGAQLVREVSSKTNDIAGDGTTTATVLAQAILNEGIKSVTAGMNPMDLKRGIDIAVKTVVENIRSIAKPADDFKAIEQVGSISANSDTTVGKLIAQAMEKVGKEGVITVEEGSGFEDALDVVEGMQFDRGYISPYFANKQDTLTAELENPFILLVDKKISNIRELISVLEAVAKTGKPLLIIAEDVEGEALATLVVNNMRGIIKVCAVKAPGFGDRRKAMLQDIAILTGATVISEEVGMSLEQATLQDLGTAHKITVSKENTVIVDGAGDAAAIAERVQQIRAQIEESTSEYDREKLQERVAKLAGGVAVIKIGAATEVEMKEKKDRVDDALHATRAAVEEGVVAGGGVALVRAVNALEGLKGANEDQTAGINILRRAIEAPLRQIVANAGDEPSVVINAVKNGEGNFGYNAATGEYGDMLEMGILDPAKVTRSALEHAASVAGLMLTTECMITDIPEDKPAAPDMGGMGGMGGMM
UniProt A6NK06, sequence (whole entry, looked up): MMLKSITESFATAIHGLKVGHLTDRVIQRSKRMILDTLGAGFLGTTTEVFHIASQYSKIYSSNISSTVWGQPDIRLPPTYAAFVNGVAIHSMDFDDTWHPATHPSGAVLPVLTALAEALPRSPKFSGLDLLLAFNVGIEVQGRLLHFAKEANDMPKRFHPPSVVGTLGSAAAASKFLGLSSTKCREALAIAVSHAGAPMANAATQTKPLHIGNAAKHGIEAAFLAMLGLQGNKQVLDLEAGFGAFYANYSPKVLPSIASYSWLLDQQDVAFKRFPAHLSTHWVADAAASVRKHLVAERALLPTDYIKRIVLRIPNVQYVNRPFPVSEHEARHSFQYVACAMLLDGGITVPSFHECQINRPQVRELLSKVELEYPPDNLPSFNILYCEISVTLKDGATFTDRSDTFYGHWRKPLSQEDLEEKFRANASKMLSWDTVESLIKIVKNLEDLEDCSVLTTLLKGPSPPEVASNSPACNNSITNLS
UniProt Q8ZKF6, sequence (whole entry, looked up): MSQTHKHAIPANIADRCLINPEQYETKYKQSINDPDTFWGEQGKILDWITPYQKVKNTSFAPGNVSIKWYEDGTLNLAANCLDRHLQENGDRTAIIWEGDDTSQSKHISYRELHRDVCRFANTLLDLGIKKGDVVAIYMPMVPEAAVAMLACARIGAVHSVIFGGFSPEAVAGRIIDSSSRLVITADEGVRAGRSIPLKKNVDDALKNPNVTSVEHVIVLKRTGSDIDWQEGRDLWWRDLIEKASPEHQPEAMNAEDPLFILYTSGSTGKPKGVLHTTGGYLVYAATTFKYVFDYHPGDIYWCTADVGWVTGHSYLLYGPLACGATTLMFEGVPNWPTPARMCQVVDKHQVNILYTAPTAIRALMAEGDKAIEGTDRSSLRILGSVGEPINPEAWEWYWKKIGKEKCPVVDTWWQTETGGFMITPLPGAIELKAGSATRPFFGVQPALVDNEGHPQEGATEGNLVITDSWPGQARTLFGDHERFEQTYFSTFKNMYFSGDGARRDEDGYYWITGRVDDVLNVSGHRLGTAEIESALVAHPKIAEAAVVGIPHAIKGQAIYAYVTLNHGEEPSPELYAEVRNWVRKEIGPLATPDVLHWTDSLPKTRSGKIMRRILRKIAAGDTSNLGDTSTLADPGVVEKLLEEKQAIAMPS

For `B1 (SCO6712)`, the kcat/Km was 430 ± 600 M⁻¹ s⁻¹ (CCn1c(=NN=c2sc3cc(S(=O)(=O)O)ccc3n2CC)sc2cc(S(=O)(=O)O)ccc21; steady-state kinetics; pH 7, 37 °C, NaCl 150 mM, together with: O2 cosubstrate).
The kcat/Km of `enzyme (UniProt A0A097IUD8)` is reported as 24000 M⁻¹ s⁻¹ (C=C(OP(=O)(O)O)C(=O)O; steady-state kinetics; pH 6, 25 °C, together with: 2 mM ADP).
For `B2`, the kcat/Km was 470000 M⁻¹ s⁻¹ (O=C(O)C(=O)Cc1ccccc1; steady-state kinetics; pH 7.5, 25 °C, together with: PLP 20 µM, ammonium acetate 10 mM).
`B3 (enzyme S252E)` gave a kcat/Km of 160000 ± 20000 M⁻¹ s⁻¹ (NC(=O)C1=CN([C@@H]2O[C@H](COP(=O)(O)OP(=O)(O)OC[C@H]3O[C@@H](n4cnc5c(N)ncnc54)[C@H](OP(=O)(O)O)[C@@H]3O)[C@@H](O)[C@H]2O)C=CC1; steady-state kinetics; pH 7, 30 °C, apparent).
With `enzyme (Acinetobacter baumannii, UniProt B7I618)` the kcat/Km was 1260 M⁻¹ s⁻¹ (Nc1ncnc2c1ncn2[C@@H]1O[C@H](COP(=O)(O)OP(=O)(O)OP(=O)(O)O)[C@@H](O)[C@H]1O; steady-state kinetics; pH 7.4, 24 °C, apparent, per site).
`ACOD1 (Homo sapiens, UniProt A6NK06)` has a kcat/Km of 6090 M⁻¹ s⁻¹ (O=C(O)/C=C(/CC(=O)O)C(=O)O; steady-state kinetics).
The kcat/Km of `enzyme M50A (Homo sapiens, UniProt Q08623)` is reported as 8330 M⁻¹ s⁻¹ (O=c1[nH]cc([C@@H]2O[C@H](COP(=O)(O)O)[C@@H](O)[C@H]2O)c(=O)[nH]1; steady-state kinetics; pH 7, 25 °C).
The kcat/Km of `acs (Salmonella enterica, UniProt Q8ZKF6)` is reported as 12000 M⁻¹ s⁻¹ (CCC(=O)O; steady-state kinetics; pH 7, 30 °C, apparent).
`enzyme (Bacteroides fragilis, UniProt Q5LAD6)` has a kcat/Km of 3950 M⁻¹ s⁻¹ (C[C@@H]1O[C@@H](Oc2ccc([N+](=O)[O-])cc2)[C@@H](O)[C@H](O)[C@@H]1O; steady-state kinetics; pH 7, 37 °C).
`human ME2 F68V` has a Hill coefficient of 1.29 ± 0.03 (enzyme activity, NADH absorbance; with fumarate 3 mM, together with: L-malate varied).
`CCUUUCCCC (ssRNA)` gave a Kd of 1.27 µM (U2AF2; sequencing of bound RNA; RNA; motif only).
`B4 (enzyme S446A)` has a kcat/Km of 68 ± 19 M⁻¹ s⁻¹ (Nc1ncnc2c1ncn2[C@@H]1O[C@H](COP(=O)(O)OP(=O)(O)OP(=O)(O)O)[C@@H](O)[C@H]1O; steady-state kinetics; pH 8.5, 25 °C, apparent, anoxic, together with: L-Thr 10 mM).
`enzyme (Oryza sativa, UniProt Q6ZGQ4)` gave a kcat/Km of 19000 M⁻¹ s⁻¹ (O=[N+]([O-])c1ccc(O[C@@H]2OC[C@@H](O)[C@H](O)[C@H]2O)cc1; steady-state kinetics; pH 4, 40 °C, apparent).
With `acsA I222V/L233M (Pseudomonas chlororaphis)` the kcat/Km was 41.7 ± 8.33 M⁻¹ s⁻¹ (O=C(O)CCC(F)(F)F; steady-state kinetics; pH 7).
The kcat/Km of `enzyme (Mycobacteroides abscessus, UniProt B1MGE0)` is reported as 1.1e+06 M⁻¹ s⁻¹ (C/C(=C\C=C(/O)C(=O)O)C(=O)CC[C@@H]1C(=O)CC[C@]2(C)C(=O)CC[C@@H]12; steady-state kinetics; pH 7.5, 25 °C).
`human NudC` — result for “log2 fold change”: 0.58 (CYB5R4 knockout human cells; PP4 interaction, 3xFLAG-PP4C IP-MS; concentration not given; reference: CYB5R4 KO over parental).
`UUAAUUCAU (ssRNA)` gave a Kd of 7.26 µM (U2AF2; sequencing of bound RNA; RNA; motif only).
For `gdh N192S/N97F (Bacillus subtilis)`, the kcat/Km was 72500 ± 2670 M⁻¹ s⁻¹ (NC(=O)c1ccc[n+]([C@@H]2O[C@H](COP(=O)(O)OP(=O)(O)OC[C@H]3O[C@@H](n4cnc5c(N)ncnc54)[C@H](O)[C@@H]3O)[C@@H](O)[C@H]2O)c1; steady-state kinetics; pH 7, 55 °C).
For `B5 (human FUS)`, “log2 fold change” read -0.51 (CYB5R4 knockout human cells; PP4 interaction, 3xFLAG-PP4C IP-MS; concentration not given; reference: CYB5R4 KO over parental).
`B6 (enzyme)` has a kcat/Km of 10800 ± 2500 M⁻¹ s⁻¹ (N[C@H](COP(=O)(O)O)Cc1c[nH]cn1; steady-state kinetics; pH 7.8, 25 °C).

Excerpt of the above:
`ACOD1 (Homo sapiens, UniProt A6NK06)` has a kcat/Km of 6090 M⁻¹ s⁻¹ (O=C(O)/C=C(/CC(=O)O)C(=O)O; steady-state kinetics).
The kcat/Km of `enzyme M50A (Homo sapiens, UniProt Q08623)` is reported as 8330 M⁻¹ s⁻¹ (O=c1[nH]cc([C@@H]2O[C@H](COP(=O)(O)O)[C@@H](O)[C@H]2O)c(=O)[nH]1; steady-state kinetics; pH 7, 25 °C).
